Assay results pooled from the literature.
Each numbered part is a random draw from the data of one study; scales do not carry over between parts.

Set 1 — technique: RNA Bind-n-Seq; molecule type: RNA; medium: in vitro; tested at: 365 nM; baseline: no-protein control; direction: higher = stronger binding
Target: RNA binding protein fox-1 homolog 2, RRM domain, GST-SBP tag (RBFOX2, Homo sapiens, UniProt O43251-10, residues 100-194)
Notes: natural RNA segment, single round, ends assumed
Target sequence (chain): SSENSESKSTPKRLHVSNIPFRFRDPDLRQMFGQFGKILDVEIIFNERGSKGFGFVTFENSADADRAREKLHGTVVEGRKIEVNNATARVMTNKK
`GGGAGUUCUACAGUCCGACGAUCCUCACUCUUUUUUUUUAGUUACUAAUCAUUUUAUGAAAAUAAUGUAUUUAUAAGUAUUUUCUUAAGGUUUGUGAAGAGUAUUUGCAUUGUGUCUUCAUUUUAAUGUGUUUUGGAAUUCUCGGGUGCCAA`: “RBNS enrichment (R)” 1.81.
`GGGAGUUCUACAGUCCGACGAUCCAACUUGAUGAAAAGAAAAUAAGAGACAUUGUAGUCCUUGCAGGGAUCUUGCUUAAAAUCAUUAAAAUGUUGCAGACAGUCCUAAGAGCCUGACUGGAAUGUAUUCAGUUUGGAAUUCUCGGGUGCCAA` — result for “RBNS enrichment (R)”: 0.409.
`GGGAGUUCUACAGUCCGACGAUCGCCUAGUCUCCCUCUCCCACUCCUUCUGAUGACACUAGCAAUGCAUUCCAUCUGACCUGACUUUAUCAUAGAGGCAAAAUUGUUCAGAACACUGGCUGGAGAUGGGGAGAUGGAAUUCUCGGGUGCCAA`: “RBNS enrichment (R)” 0.629.
Under “RBNS enrichment (R)”, `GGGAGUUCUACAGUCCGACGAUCCAUCACGUGGAAAAACUAGAUCCUGUUGGUUAUAGCAUUUGUGAGUUCUCCACGUCUGUCUCUCUCGCUCAUGUAAUAUACUCUGACCCUGAGUGGAAAGGGGUUUUUGUUGGAAUUCUCGGGUGCCAA` is recorded as 0.838.
`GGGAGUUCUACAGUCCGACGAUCUGCCAUCAGACAUUAAGCUGUAGCUGGCUCUGGCCAGCUGCUCCAGUGUACCAGAACCUGAGGAUGCUCGCUGCAAGGCCUCAGUUCUCAGGCCUUAGGGUGUAUUUGUCUGGAAUUCUCGGGUGCCAA` — result for “RBNS enrichment (R)”: 0.302.
`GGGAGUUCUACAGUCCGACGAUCCGAGAGAUAGAAAAUCUUUAUCUGUCCUUCUUGCUCCCUGACAUUAAUAAAUUUUUCUGAAGUCUCAAAGUCUUCUCAACAGUCAAGAAACCAAGCAAGCAAGCAAGAGCUGGAAUUCUCGGGUGCCAA`: “RBNS enrichment (R)” 0.754.
`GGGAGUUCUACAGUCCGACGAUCAGACAUUCCAGAAUUGUCAUGAUGUUUACACUGUCUGAGUUAAAAAUCCUGUUCAAGAAAAAAAAAGAUUUUGUAUCACUUCUUAAAAAGGAAUAUUCAUAGCACUUGUCUGGAAUUCUCGGGUGCCAA`: “RBNS enrichment (R)” 0.731.
For `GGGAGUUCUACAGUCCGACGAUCUCUCUGGCUUCAGAGCCUGAAACAAAGAGAAACAGGAUCUGUCUCUACCCAGCACAGCAAAUGGUUGUAGUAAUUGCCAAAGCCCUCAUAAACCCCUCCGGCUUGAGGAGUGGAAUUCUCGGGUGCCAA`, “RBNS enrichment (R)” read 0.559.

Set 2 — technique: RNA Bind-n-Seq; molecule type: RNA; medium: in vitro; tested at: 100 nM; baseline: input RNA pool; direction: higher = stronger binding
Target: RING finger protein unkempt homolog, zinc fingers 1-6, SBP tag (UNK, Homo sapiens, UniProt Q9C0B0, residues 30-357)
Sequence of UniProt Q9C0B0 (30-357, looked up): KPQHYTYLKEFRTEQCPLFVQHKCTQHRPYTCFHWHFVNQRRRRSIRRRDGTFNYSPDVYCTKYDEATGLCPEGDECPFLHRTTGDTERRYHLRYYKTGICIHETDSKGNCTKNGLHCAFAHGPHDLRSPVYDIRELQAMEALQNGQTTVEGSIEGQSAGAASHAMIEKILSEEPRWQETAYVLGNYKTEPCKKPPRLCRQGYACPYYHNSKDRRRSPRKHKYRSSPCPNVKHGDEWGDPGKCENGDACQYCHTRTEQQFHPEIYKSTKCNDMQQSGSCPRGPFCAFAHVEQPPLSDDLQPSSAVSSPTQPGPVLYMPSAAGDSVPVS
Notes: RNA with constant flanks, vertebrate orthologous sites, ends assumed
`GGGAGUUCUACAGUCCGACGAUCGUGUUGGUACAGAGUGCUCUGUACCAGUGCUCAUCAUCCCUUCUUCAUACCAACGGUCCCUAGUUAUAGGAAUUUAAUAUUUUUAAAAGUUUUACAUUGCUGUAUAUUCAAAGAUUUGUUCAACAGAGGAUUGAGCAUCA` has a bound/input enrichment of 0.609 ratio.
With `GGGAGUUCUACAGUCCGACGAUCCCGAAAGGCCAAAUUCCCUCCUCCCUUCUACUGCUUCUACCAACUGGAAGCACAGAAAACUAGAAUUUCAUUUAUUUUGUUUUUAAAAGAUACGUUGAUUUCUUGUAACAUCCGAUAGGACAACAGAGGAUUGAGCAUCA` the bound/input enrichment was 0.612 ratio.
With `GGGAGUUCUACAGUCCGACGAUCAUUCAAACCUGUGGUACCAUGGCCUCACGUGGAAGGAGUAGAAGUGGAUUUAGAAUCCAUUCGAAGAAAAAACAAGGCUAAAAAUGCACAAGAACACCAUGCUGGCGGAGAUUCCCAAAACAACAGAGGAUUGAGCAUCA` the bound/input enrichment was 0.196 ratio.
For `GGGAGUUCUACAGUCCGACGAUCCUCCUCUUAAUCCCAUCUCAUCUGUUUCAUAGUGCUGAAAUUCUAUCUCCAGCCUAAUUUUUAGUGAACUUAUUCUAAUUCUAGAGAAACUUCCAGUGUGGAUACUGUGAGCUAUAUGGACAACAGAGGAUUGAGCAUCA`, the bound/input enrichment was 2.03 ratio.
For `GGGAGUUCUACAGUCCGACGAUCAUUCAAACCUGUGGUACCUUGGCCCCAUGUGGAAGGGGUAGAAGUGGACUUGGAGUCUAUUAGAAGAAAAAACAAAGCCAAAAACGAGCAGGAGCAUCAAGUUGGGGGUAUCAACCAACACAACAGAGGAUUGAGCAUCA`, the bound/input enrichment was 0.44 ratio.
For `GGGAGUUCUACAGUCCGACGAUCUGGUUUGUACAGGGGCCUUCUCUGUACUAGUUAGUUGUGGUUAUAAAACAAUUAGCAAAACGGCUUACAUUUGUAUUUAUUUACUAUUCCAUACUUCUUCCCUGCCUCGUUUUUCUUUCUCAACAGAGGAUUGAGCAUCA`, the bound/input enrichment was 0.627 ratio.
For `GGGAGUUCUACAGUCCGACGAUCUUGUGACUGCCUCUCCAAACAAGAAUAGUAAUAAGAAAAACAAACAAAAUGAUAUUUGUAUAGAAAACUCAGAAAUCAAAUCAUGUAAAGUAAAUGUUGGCAGUGUUUCAUGCCCUAAUGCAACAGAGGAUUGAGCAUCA`, the bound/input enrichment was 1.62 ratio.
The bound/input enrichment of `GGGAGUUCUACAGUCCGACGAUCCUACUAUAAACAACUCAGGGCAGUAUUCUCGAUAUCCUUACAGUAACCUAAAUCAGGGAUUAGUUAACAAUACAGGGAUGAAUCAAAAUUUAGGCCUUACAAACAAUACUCCAAUGAAUCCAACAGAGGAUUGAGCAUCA` is reported as 1.3 ratio.

Set 3 — technique: protein-binding microarray; molecule type: double-stranded DNA, one strand shown; medium: in vitro; tested at: 250 nM; notes: 60-bp whole probe; added: salmon DNA 0.4 mg/ml; baseline: random background probes; direction: higher = stronger binding; shared flanks, not repeated: GCCTAGCAC … GTCTTGATTCGCTTGACGCTGCTG
Target: Interferon regulatory factor 7, full length, phosphomimetic (IRF7, Homo sapiens, UniProt Q92985, residues 1-503, S101K/S471D/S472D/S475D/S476D/S477D/S483D/S484D/S487D)
Sequence of UniProt Q92985 (whole entry, unmodified, looked up): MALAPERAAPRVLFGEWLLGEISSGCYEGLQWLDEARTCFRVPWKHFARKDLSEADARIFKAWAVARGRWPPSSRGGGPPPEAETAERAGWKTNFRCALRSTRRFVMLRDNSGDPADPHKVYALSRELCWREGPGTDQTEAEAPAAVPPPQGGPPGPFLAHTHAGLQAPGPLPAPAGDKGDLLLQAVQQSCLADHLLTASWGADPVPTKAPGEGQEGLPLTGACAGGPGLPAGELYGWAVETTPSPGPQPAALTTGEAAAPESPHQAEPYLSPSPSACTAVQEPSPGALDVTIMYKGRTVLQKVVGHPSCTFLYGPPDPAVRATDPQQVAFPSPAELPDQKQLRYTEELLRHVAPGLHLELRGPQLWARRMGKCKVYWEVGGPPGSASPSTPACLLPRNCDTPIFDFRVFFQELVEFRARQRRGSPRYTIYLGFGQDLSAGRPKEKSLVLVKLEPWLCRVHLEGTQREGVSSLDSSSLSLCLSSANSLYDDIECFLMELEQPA
`GGATTTCAGTTTCTCTTTCCGTGCTAG` has a log fluorescence of 6.46 z-score.
`GACGGTATCGACTTGCGGGACGTGCTA` gave a log fluorescence of 1.81 z-score.
The log fluorescence of `TCATTTTCAATTTTTGCACTGTGCTAG` is reported as 1.63 z-score.
For `GACGGTCTCCTCATCCTGACGTGCTAG`, the log fluorescence was -0.106 z-score.
For `ATAGATATCAGACTGGATTAGTGCTAG`, the log fluorescence was -0.0897 z-score.
`GACGCACTGGGTTTCGGGACGTGCTAG` has a log fluorescence of 1.97 z-score.
`TTAGATGTCAGTTTCGATTAGTGCTAG` gave a log fluorescence of 8.15 z-score.
For `TTGGGTTTCGGGTTTCGGTTAGTGCTA`, the log fluorescence was 11.4 z-score.
`TGGGACCAGCACAGACAGTCGTGCTAG` has a log fluorescence of -0.073 z-score.
`GACGGTCTCCTTTTCTTGACGTGCTAG` has a log fluorescence of 1.02 z-score.
`TTAGATATCGGGACTGGATTCGTGCTA` gave a log fluorescence of 0.219 z-score.
For `TTAGGACTGCTACTGCTCTAGTGCTAG`, the log fluorescence was -0.373 z-score.

Set 4 — technique: protein binding microarray; molecule type: double-stranded DNA, one strand shown; medium: in vitro; tested at: not given; baseline: not given; direction: higher = stronger binding
Target: Histone acetyltransferase KAT6A, winged helix 2, GST fusion (KAT6A, Homo sapiens, UniProt Q92794, residues 85-181)
Notes: 8-mer, flanks averaged, mean of 2 arrays, mostly near background
Construct (chain): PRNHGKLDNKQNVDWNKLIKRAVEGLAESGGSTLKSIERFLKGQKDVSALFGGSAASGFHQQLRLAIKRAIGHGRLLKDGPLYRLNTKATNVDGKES
The E-score of `CGTTCCGA` is reported as 0.0883.
`GCAAGCGA` gave an E-score of 0.142.
The E-score of `AGTGGCGG` is reported as 0.122.
With `CCCGGCAG` the E-score was 0.144.
`ATCCAAGA` gave an E-score of 0.128.
The E-score of `CCATCGCC` is reported as 0.0602.
With `CCCGATAA` the E-score was -0.0807.
The E-score of `CCGGCAAC` is reported as 0.0131.
The E-score of `ATACCTGA` is reported as 0.0861.
`CAATGCGA` has an E-score of 0.104.
`ATGAACCA` has an E-score of 0.123.
For `CCATGTCG`, the E-score was 0.0349.
`CACCCTTA` has an E-score of -0.029.
`ATCGAAAC` has an E-score of 0.116.
With `GCTACAGC` the E-score was 0.0583.
The E-score of `GACAAGAA` is reported as -0.0452.
With `GCTAGAAA` the E-score was 0.0735.

Excerpt of the above (set 4):
The E-score of `AGTGGCGG` is reported as 0.122.
With `GCTAGAAA` the E-score was 0.0735.
`ATGAACCA` has an E-score of 0.123.
`ATCCAAGA` gave an E-score of 0.128.
For `CCATGTCG`, the E-score was 0.0349.
`ATCGAAAC` has an E-score of 0.116.
